Measurements collected from several papers.
Every numbered part comes from another study and shows a few of its results, in no order.

Block 1 — method: protein-binding microarray; molecule type: double-stranded DNA, one strand shown; matrix: in vitro; concentration: 250 nM; setting: 60-bp whole probe; together with: salmon DNA 0.4 mg/ml; baseline: random background probes; reading: higher = stronger binding; shared flanks, not repeated: GCCTAGCAC … GTCTTGATTCGCTTGACGCTGCTG
Target: Interferon regulatory factor 5, full length, phosphomimetic (IRF5, Homo sapiens, UniProt Q13568-2, residues 1-514, K96S/S451D/S453D/S456D/S462D)
| Sequence | log fluorescence |
| --- | --- |
| TTATGTATCGGACTGGGTTAGTGCTAG | 1.71 z-score |
| TTAGGACTGCTTATCCTTTGGTGCTAG | -0.281 z-score |
| GGGTCTCTGGGTCGGGCAGGGTGCTAG | -0.379 z-score |
| TTAGGTATCGACAATCGGTTAGTGCTA | 3.46 z-score |
| GACGGACTGCTACAGCTGACGTGCTAG | -0.356 z-score |
| TTAGGTTCCGTTTTCGGTTAGTGCTAG | 7.5 z-score |
| GACGATATCGGGCCTGGAGACGTGCTA | 0.538 z-score |
| CCTCGTCTCTATCAAAAATAGTGCTAG | 0.494 z-score |
| TCAACTTTCCAAAACATACTGTGCTAG | 0.843 z-score |
| GAGGAACTGGGGTATCGAGACGTGCTA | 0.141 z-score |
| GACGATATCGGTCTCGAGACGTGCTAG | 3.73 z-score |
| GACGGTTTTGACACTGGGGACGTGCTA | 0.218 z-score |
| TCATCTCTGGGCTGTGGGACTGTGCTA | -0.0229 z-score |
| TTAGGAATCGACTTTCGGTTAGTGCTA | 10.1 z-score |
| TTCTCTCCCATTCTGAATTCGTGCTAG | 0.718 z-score |
| TCACCAATCTCTCTTCAACTGTGCTAG | 0.292 z-score |
| GACGATCTCAGTCTCGAGATGTGCTAG | 0.0334 z-score |
| TTATATTCCAGTTTCGATTAGTGCTAG | 9.95 z-score |
| TTAGGCCTGGGTATCGGTTAGTGCTAG | 3.52 z-score |

Block 2 — method: RNAcompete; molecule type: RNA; matrix: in vitro; concentration: 20 nM; setting: 7-mer, probes averaged, single round; baseline: mean of 7-mers; reading: higher = stronger binding
Target: PABPC1L2, full length, GST fusion (mouse, UniProt A0ABA7IW68)
Target sequence (chain): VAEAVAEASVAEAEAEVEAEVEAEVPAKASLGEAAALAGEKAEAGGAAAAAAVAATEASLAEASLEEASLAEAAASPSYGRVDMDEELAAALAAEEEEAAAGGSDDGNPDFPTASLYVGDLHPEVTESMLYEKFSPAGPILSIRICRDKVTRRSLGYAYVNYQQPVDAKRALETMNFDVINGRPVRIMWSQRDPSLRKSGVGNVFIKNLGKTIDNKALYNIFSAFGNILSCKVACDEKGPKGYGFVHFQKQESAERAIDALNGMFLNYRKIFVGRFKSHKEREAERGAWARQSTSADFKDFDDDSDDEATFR
| Sequence | 7-mer Z-score |
| --- | --- |
| UUUAAGC | 0.0968 |
| CAUGUUU | -0.427 |
| ACUAUGG | 0.0334 |
| AGACACU | -0.171 |
| UCAAUCC | -0.24 |
| CGAUGCU | -0.286 |
| UUACCCC | -0.443 |
| ACAAUUU | 0.138 |
| CAUCCAG | -0.26 |
| AAGCACC | -0.0101 |
| AGCUCUU | -0.309 |
| CCGAGGU | -0.229 |
| GCAAGAU | 0.142 |
| CUGAGGC | -0.142 |
| GAGUUUU | -0.374 |
| GAGAACU | -0.137 |
| UACGCUC | -0.168 |
| GAUGGCA | -0.0917 |
| AUAGCUG | -0.153 |
| AGAGGAA | 0.278 |
| AAAUGCA | 1.16 |
| UCUCGAU | -0.316 |
| ACGUAUG | -0.108 |
| ACUAAGG | 0.173 |
| CACUAGG | 0.00798 |

Block 3 — method: protein binding microarray; molecule type: double-stranded DNA, one strand shown; matrix: in vitro; concentration: not given; baseline: not given; reading: higher = stronger binding
Target: Histone acetyltransferase KAT6A, both winged helices, GST fusion (KAT6A, Homo sapiens, UniProt Q92794, residues 1-181)
Setting: 8-mer, flanks averaged, mean of 2 arrays, mostly near background
Construct (chain): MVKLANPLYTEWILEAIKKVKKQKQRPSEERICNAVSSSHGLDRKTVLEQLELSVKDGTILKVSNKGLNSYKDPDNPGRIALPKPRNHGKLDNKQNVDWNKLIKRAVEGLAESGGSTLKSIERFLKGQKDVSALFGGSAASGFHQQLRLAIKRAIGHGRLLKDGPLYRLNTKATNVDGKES
| Sequence | E-score |
| --- | --- |
| CCTGCAGC | -0.0341 |
| CACTGGGG | -0.133 |
| CACTATGG | -0.156 |
| CAGAGGCA | -0.11 |
| ATTCCAAA | -0.104 |
| ACCTTAGC | -0.155 |
| CTATCGTC | 0.00985 |
| GTGTAGTA | -0.125 |
| TAACGGCA | 0.275 |
| ACCACTTG | -0.174 |
| ACTGTATA | -0.15 |
| ACTTGAGA | -0.103 |
| GAGAGCTC | -0.0923 |
| GCATTACA | -0.0531 |
| GCCTCCAC | -0.0602 |
| ACCCAGGC | -0.149 |
| CCGGTGCA | 0.161 |

Block 4 — method: universal PBM; molecule type: double-stranded DNA, one strand shown; matrix: in vitro; concentration: 600 nM; reading: higher = stronger binding
Target: Sal-like protein 4, full length isoform A (SALL4, Homo sapiens, UniProt Q9UJQ4, residues 1-1053)
UniProt Q9UJQ4, sequence (whole entry, looked up): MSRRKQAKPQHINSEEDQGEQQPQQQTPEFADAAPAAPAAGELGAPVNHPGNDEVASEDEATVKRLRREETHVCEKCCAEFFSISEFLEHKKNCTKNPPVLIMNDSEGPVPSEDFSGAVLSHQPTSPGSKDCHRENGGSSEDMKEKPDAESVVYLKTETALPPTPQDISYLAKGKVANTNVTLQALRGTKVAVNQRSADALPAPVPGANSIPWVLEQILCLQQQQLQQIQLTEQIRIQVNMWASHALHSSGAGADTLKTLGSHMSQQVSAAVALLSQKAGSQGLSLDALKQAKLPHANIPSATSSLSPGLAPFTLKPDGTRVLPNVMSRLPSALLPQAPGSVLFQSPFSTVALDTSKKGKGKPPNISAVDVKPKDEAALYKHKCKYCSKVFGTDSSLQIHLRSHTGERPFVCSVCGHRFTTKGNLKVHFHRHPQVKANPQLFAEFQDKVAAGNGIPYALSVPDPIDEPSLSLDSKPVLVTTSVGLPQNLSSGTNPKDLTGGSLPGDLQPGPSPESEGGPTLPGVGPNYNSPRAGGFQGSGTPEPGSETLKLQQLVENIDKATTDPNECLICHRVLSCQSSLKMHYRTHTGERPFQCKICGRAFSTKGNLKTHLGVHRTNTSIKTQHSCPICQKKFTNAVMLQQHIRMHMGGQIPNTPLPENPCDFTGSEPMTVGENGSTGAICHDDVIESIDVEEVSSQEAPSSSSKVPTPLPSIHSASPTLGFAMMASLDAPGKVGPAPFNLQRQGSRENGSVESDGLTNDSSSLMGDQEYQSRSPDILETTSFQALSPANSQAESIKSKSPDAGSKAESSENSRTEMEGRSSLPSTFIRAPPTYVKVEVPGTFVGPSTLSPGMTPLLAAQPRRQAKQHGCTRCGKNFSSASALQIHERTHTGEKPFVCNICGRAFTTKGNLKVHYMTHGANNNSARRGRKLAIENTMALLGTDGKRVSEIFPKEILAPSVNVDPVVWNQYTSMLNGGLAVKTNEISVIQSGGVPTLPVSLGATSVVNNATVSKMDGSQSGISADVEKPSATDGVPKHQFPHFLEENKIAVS
Setting: 8-mer, flanks averaged, mean of replicates
| Sequence | E-score |
| --- | --- |
| CTTAGTAC | 0.0597 |
| GCACTTTA | 0.13 |
| ACGCGATA | 0.0738 |
| CAGAGACC | -0.21 |
| CACTAGAC | -0.022 |
| ACAATGAA | 0.273 |
| CGGGAAAC | -0.153 |
| ACACGATA | 0.155 |
| CCCACCGA | -0.223 |
| CGGTCGGA | -0.351 |
| AAGTAAGC | 0.114 |
| CGATAACG | -0.0199 |
| AATAAGGC | 0.174 |
| CGTCGCAC | -0.218 |
| AATTTAAC | 0.174 |
| CCTATACC | -0.00698 |
| ACGGACGA | -0.0329 |
| ACTGCTTC | -0.166 |

Block 5 — method: competition protein-binding microarray; molecule type: double-stranded DNA, one strand shown; matrix: in vitro; concentration: 2 µM; together with: Cbf1 competitor, 0.05 µM; reading: higher = stronger binding; shared flanks, not repeated: … GTCTTGATTCGCTTGACGCTGCTG
Target: Phosphate system positive regulatory protein PHO4, full length, GST-tagged (PHO4, Saccharomyces cerevisiae, UniProt P07270, residues 1-312)
Setting: whole 60-bp probe, lowest competitor level
Target sequence (chain): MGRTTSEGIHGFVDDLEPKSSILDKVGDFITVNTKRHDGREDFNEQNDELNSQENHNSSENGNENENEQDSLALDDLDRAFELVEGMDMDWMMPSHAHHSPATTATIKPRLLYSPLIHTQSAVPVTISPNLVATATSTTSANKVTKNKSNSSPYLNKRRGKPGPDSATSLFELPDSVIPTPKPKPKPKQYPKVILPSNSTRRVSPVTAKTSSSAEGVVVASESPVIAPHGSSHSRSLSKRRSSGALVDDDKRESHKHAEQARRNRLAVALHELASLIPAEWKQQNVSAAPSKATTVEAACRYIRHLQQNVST
| Sequence | fluorescence intensity [a.u.] |
| --- | --- |
| AAATTACTAAGTTTTCACGTGCGATACCCCGTATGA | 14600 |
| GCCCACTTTTTTTCAAATGTGTGAGACACCCATACC | 5310 |
| CTTCTGTAAATTTGGTCCGTGGGTGGACGCGCCCCG | 6480 |
| CGTAGTATGGCAATATTCGTGGGTATAACATTCTGC | 5590 |
| GCCGTTGAGTGCTTCGACGTGGCCGTCGAGTCCCCT | 4260 |
| CATACCCAACCTTGAAAAGTGGGTGAAGATATTTGT | 3390 |
| CACGACTTGGCTACTCATTCTTTGTGAAACCTTAGA | 3430 |
| GCGCAAAATGGCGTCACCGTGAAAAAGGAGGAGGAT | 3260 |
| TTGTAAGGCTGTACCCACGTCTTGAAAGGCAATCTG | 5890 |
| CTTTCCCGATCTTGTAAGGTGGGTGTAGCACATTTG | 4560 |
| GCAGAAGTAGCCAAAGATGTGACGCTACCGTTGTGA | 3310 |
| CTTCTGTAAATTTGTCACTTTACTTGACGCGCCCCG | 3630 |
| GTCTTGTCTCATTGATAGGTGGGTGTCCCCACTTCA | 5140 |
| GGATACTTGCTTGTTGACGTGCTTTTAGGCATCCTT | 4730 |
| CTAACGAAGGTTTGGTGCGTGGGTGACAAGCCAAGT | 8840 |
| TAACCCAGTTGTAACCAGATGGAGTCATTCTACCGG | 2720 |
| AAATGAACTGCCAATAACATGCAAGAATGAAGACGG | 5300 |
| CTTCTGTAAATTTTTCACGTGGTTTGACGCGCCCCG | 11200 |
| TTACTTTTTCAAAGACTCGTGCTTTCTATTGCATAA | 11700 |

A few entries again (block 3):
| Sequence | E-score |
| --- | --- |
| CACTGGGG | -0.133 |
| CACTATGG | -0.156 |
| CAGAGGCA | -0.11 |
| ATTCCAAA | -0.104 |
| ACCTTAGC | -0.155 |
| CTATCGTC | 0.00985 |
| GTGTAGTA | -0.125 |
| TAACGGCA | 0.275 |
| ACCACTTG | -0.174 |
| ACTGTATA | -0.15 |
| ACTTGAGA | -0.103 |
| GAGAGCTC | -0.0923 |
| GCATTACA | -0.0531 |
